Published values gathered from unrelated publications.
Protocols differ between the studies behind these lines.
Target: Serine/threonine-protein kinase PLK3 (PLK3, Homo sapiens, UniProt Q9H4B4)

SMILES	assay	setting	scale	endpoint	value
C=CC(=O)Nc1cccc(-c2cnc3[nH]cc(C(=O)NC(C)(C)C)c3n2)c1	kinase activity	0.1 µM	–	inhibition	14%
NC(=O)C[C@H]1CCc2sc3ncnc(O[C@H]4CC[C@H](N5CCOCC5)CC4)c3c21	enzyme activity, inhibitor	10 µM	–	inhibition	2%
Cc1cccc(O[C@H]2CCC[C@@H](C(C)CNCc3ccncc3)C2)c1 (relative stereo)	enzyme activity, inhibitor	10 µM	–	inhibition	-24%
Nc1ncc(-c2cc(-c3cnn(CC(F)(F)F)c3)ncc2F)nc1C(=O)NC1CNCC(F)C1 (stereo not shown)	enzyme activity	1 µM	reference: DMSO control	remaining activity	105%
CN1CC[C@@H](COc2cnc(C#N)cc2-c2ccn3nc(NC(=O)C4CC4)cc3c2)C1	enzyme activity, inhibitor	1 µM	–	inhibition	7%
C=CC(=O)N1CCc2ccc(-n3c(=O)ccc4cnc5ccc(-c6cnn(C)c6)cc5c43)cc21	KINOMEscan	1 µM	reference: DMSO control	remaining binding	100%
O=C=[N][Ru-4]123([n]4c5ccc(O)cc5c5c6c(c7cc(F)c[n+]1c7c54)C(=O)NC6=O)[S+]1CC[S+]2CC[S+]3CC1 (stereo not shown)	enzyme activity	100 nM, human enzyme, together with: 10 µM ATP	reference: untreated	remaining activity	113%
Cc1ccc(-c2c(/C=C(\C#N)C(=O)NC(C)C)n(CCCO)c3ncnc(N)c23)cc1	cell-free assay, competition with immobilised ligand	1 µM	–	remaining binding	86%
COc1cc(Nc2nccc(-c3cnn4nc(OC)ccc34)n2)cc(C(F)(F)F)c1	binding, competition with immobilised ligand	1 µM	–	remaining binding	92%
COc1cc(-n2cc3cc(F)cc(C(N)=O)c3n2)cc(Cl)c1C1CC(O)(CCO)Cc2ccccc21 (stereo not shown)	enzyme activity, inhibitor	10 µM	–	inhibition	0.91%
CN1CCN(Cc2ccc(NC(=O)c3cccc(C#Cc4cnc(N)c5ncccc45)c3)cc2C(F)(F)F)CC1	cell-free assay, competition with immobilised ligand	50 nM	–	remaining binding	81%
C=C1CCCCCCCCCC(CO)C1=O (stereo not shown)	cell-free assay, competition with immobilised ligand	10 µM	–	remaining binding	92%
Cc1nc2c(F)cc(-c3nc(Nc4ccc(CNC(=O)CCCCCCC(=O)NO)cc4)ncc3F)cc2n1C(C)C	enzyme activity, inhibitor	1 µM	–	inhibition	56%
COc1c(Cl)cccc1Nc1c(-c2ccncc2C#C[C@@]2(C)CCCN2C(=O)/C=C/CN(C)C)[nH]c2c1C(=O)NCC2	binding, competition with immobilised ligand	3 µM	–	remaining binding	94%
COc1ccc(NC(=O)Nc2ccc3c(c2)C(=O)N(C(C)CO)CC(C)C(CN(C)Cc2ccc4c(c2)OCO4)O3)cc1 (stereo not shown)	binding, competition with immobilised ligand	10 µM	–	remaining binding	48%
CCN1CCN(Cc2ccc(C(=O)Nc3ccc(C)c(NCc4cnc5[nH]ccc5c4OC)c3)cc2C(F)(F)F)CC1	binding, competition with immobilised ligand	1 µM	–	remaining binding	100%
CNC(=O)C[C@H](Cc1ccc(C#N)cc1)NC(=O)c1cc(-c2ccc(CN[C@H](C)c3ccc(C)cc3)o2)ccc1Cl	enzyme activity, inhibitor	1 µM	–	activity vs control	104%
C=CC(=O)N1Cc2nc(-c3cc(-c4cc(Cl)cnc4Cl)c(F)cc3F)n(-c3ccncn3)c2C1	cell-free assay, inhibitor	1 µM	–	inhibition	11.1%
CC(C)=CC1OC(C)(C)C2C=C3C(=O)C(Cl)=CC(O)C3C3C(O)C4OC4C(=O)C132 (stereo not shown)	cell-free assay, competition with immobilised ligand	10 µM	–	remaining binding	67%

Excerpt of the above:
SMILES	assay	setting	scale	endpoint	value
C=CC(=O)N1CCc2ccc(-n3c(=O)ccc4cnc5ccc(-c6cnn(C)c6)cc5c43)cc21	KINOMEscan	1 µM	reference: DMSO control	remaining binding	100%
Cc1cccc(O[C@H]2CCC[C@@H](C(C)CNCc3ccncc3)C2)c1 (relative stereo)	enzyme activity, inhibitor	10 µM	–	inhibition	-24%
NC(=O)C[C@H]1CCc2sc3ncnc(O[C@H]4CC[C@H](N5CCOCC5)CC4)c3c21	enzyme activity, inhibitor	10 µM	–	inhibition	2%
